Experimental data gathered from unrelated publications.
Protocols differ between the studies behind these lines. Several values in a cell are separate wells, animals, samples, runs or records. ± gives the spread as reported.

`COC(=O)[C@@H](NC(=O)c1nn(Cc2ccc(F)cc2)c2cc(OCCCCNC(=N)N)ccc12)C(C)(C)C`: “Gi GTP turnover median” 108% (CNR1 (Homo sapiens, UniProt P21554); GTPase; baseline: FUB).
`CCc1nnc(-c2c(OC)cc(-c3cnc4cc(-c5cnn(C)c5)ccn34)cc2OC)o1` gave a remaining binding of 113% (NR3C1 (Homo sapiens, UniProt P04150); agonist radioligand, radioligand binding; 10 µM, SafetyScreen44 GR replicate 2; lower = stronger displacement).
With `C=CC(=O)Nc1cc(-c2ccc(C(=O)N3CCCC(O)(CC)C3)cc2)ccc1F` (stereo not drawn) the unmodified protein was 53% and 40% (DNA dC->dU-editing enzyme APOBEC-3B, C-terminal domain (Homo sapiens, UniProt Q9UH17); covalent adduct, intact protein MS; 3 h, 10-fold excess, 250 µM).
With `CCCC[C@H](NC(C)=O)C(=O)N[C@H]1CCC(=O)NCCC[C@@H](C(=O)N[C@@H](C(=O)N2CCC[C@@H]2C(N)=O)C(C)C)NC(=O)[C@H](Cc2c[nH]c3ccccc23)NC(=O)[C@H](CCCNC(=N)N)NC(=O)[C@@H](Cc2ccc(F)cc2)NC(=O)[C@H](Cc2c[nH]cn2)NC1=O` the Emax was 96% (MC3R (Homo sapiens, UniProt P41968); cAMP, agonist; CHO-K1).
With `CC(C)[C@H]1NC(=O)C[C@H]2/C=C/CCSSC[C@@H](NC1=O)C(=O)N[C@H](Cc1cccc3ccccc13)C(=O)NCC(=O)O2` the inhibition was 9.6% (EEF2K (Homo sapiens, UniProt O00418); enzyme activity, inhibitor; 10 µM).
`F[B-](F)(F)c1cccc(/N=N/c2ccccc2)c1.[K+]` gave a switching factor of 5.5 ± 0.2 (Chymotrypsinogen A (Bos taurus, UniProt P00766); enzyme activity, inhibitor; added: Suc-AAPF-AMC; baseline: Ki cis over Ki trans).
Under “SILAC activity ratio”, `COCC1CCCCN1C(=O)n1cc(C(O)(c2ccccc2)c2ccccc2)nn1` (stereo not drawn) is recorded as 0.95 (Abhd6 (Mus musculus, UniProt Q8R2Y0); probe labelling, inhibitor, competitive ABPP-SILAC; mouse T cells; concentration not given, 4 h, protein level; baseline: treated over DMSO cells, lower = stronger inhibition).
`O=C(c1cccc(-n2cccc2)c1)N1CCCN(S(=O)(=O)c2ccc(F)cc2)CC1` gave a Hill slope of 1.46 (Genome polyprotein, 3C protease (rhinovirus B14, UniProt P03303); protease activity, SAMDI-MS).
`CN(C)[C@H]1C[C@@]23CC[C@@]4(O2)C(=CC[C@]2(C)[C@@H](c5ccc6ccncc6c5)CC[C@H]24)C=C3[C@@H](O)[C@@H]1O` has an inhibition of -14.4% (CDK16 (Homo sapiens, UniProt Q00536); ATP probe labelling, inhibitor, KiNativ profiling; 1 µM).
With `O=C1NC(=O)c2c1c1cc(F)c[n+]3c1c1c2c2cc(O)ccc2[n]1[Ru-4]312([N]=C=S)[S+]3CC[S+]1CC[S+]2CC3` (stereo not drawn) the remaining activity was 74% (SGK3 (Homo sapiens, UniProt Q96BR1); enzyme activity; 100 nM, human enzyme, added: 10 µM ATP; baseline: untreated).
`CCCO[C@H]1[C@H](O)[C@@H](N)[C@@H](O[C@H]2[C@H](O[C@@H]3O[C@H](CO)[C@@H](O[C@H]4O[C@@H](CN)[C@@H](O)[C@H](O)[C@H]4N)[C@H]3O)[C@@H](O)[C@H](N)C[C@@H]2N)O[C@@H]1CO` has a specific binding of -13% (Htr1b (Rattus norvegicus, UniProt P28564); radioligand binding; 10 µM, 1% DMSO).
For `CS(C)(=O)=Nc1ccc(-c2ccc(-c3nc4cc(O[C@@H]5CO[C@H]6[C@@H]5OC[C@H]6O)[nH]c4cc3F)cc2)cc1`, the inhibition was 1% (PRKD2 (Homo sapiens, UniProt Q9BZL6); enzyme activity, inhibitor; 10 µM).

Repeated from above:
`CCc1nnc(-c2c(OC)cc(-c3cnc4cc(-c5cnn(C)c5)ccn34)cc2OC)o1` gave a remaining binding of 113% (NR3C1 (Homo sapiens, UniProt P04150); agonist radioligand, radioligand binding; 10 µM, SafetyScreen44 GR replicate 2; lower = stronger displacement).
With `C=CC(=O)Nc1cc(-c2ccc(C(=O)N3CCCC(O)(CC)C3)cc2)ccc1F` (stereo not drawn) the unmodified protein was 53% and 40% (DNA dC->dU-editing enzyme APOBEC-3B, C-terminal domain (Homo sapiens, UniProt Q9UH17); covalent adduct, intact protein MS; 3 h, 10-fold excess, 250 µM).
